Results from different studies.
Each line is one published result; not all experiments were run side by side.
Sample: plasma

The half-life of `CCCC[C@H](NC(C)=O)C(=O)N[C@H]1CCC(=O)NC[C@@H](C(=O)N[C@@H](Cc2c[nH]c3ccccc23)C(N)=O)NC(=O)[C@H](CCCNC(=N)N)NC(=O)[C@@H](Cc2ccccc2)NC(=O)[C@H](Cc2c[nH]cn2)NC1=O` is reported as 9.29 h (female rat; subcutaneous, 5 mg/kg/day, multiple doses, once daily).
`Cc1nc2cccc(OCC(C)(C)C(=O)NC(C)C)c2c(N)c1C(=O)O` gave a half-life of 1.06 h (female Sprague-Dawley rat; oral, 30 mg/kg, single dose).
With `CNC(=O)c1c(C)oc2cc(Oc3ncnc4cc(OC)c(OC)cc34)ccc12` the half-life was about 3.34 h (Sprague-Dawley rat; oral, 1 mg/kg, single dose).
For `CC(=O)O[C@@]12CO[C@@H]1C[C@H](O)[C@@]1(C)C(=O)[C@H](O)C3=C(C)[C@@H](OC(=O)[C@H](O)[C@@H](NC(=O)OC(C)(C)C)c4ccccc4)C[C@@](O)([C@@H](OC(=O)c4ccccc4)[C@H]21)C3(C)C`, the half-life was 0.66 h (male Sprague-Dawley rat; intravenous, 10 mg/kg).
`Oc1ccc(C(c2ccc(O)cc2)(C(F)(F)F)C(F)(F)F)cc1` gave a half-life of 18.4 h (male rat; oral, 110 mg/kg, single dose).
The half-life of `CCc1c(-c2ccccc2)c(-c2ccccc2)nn1-c1ccccc1-c1cccc(OCC(=O)O)c1` is reported as 1.77 h (rat; intravenous, 2 mg/kg).
For `O=C(/C=C/c1ccc(O)cc1)c1ccc(O)cc1O`, the half-life was 0.7 h (Sprague-Dawley rat; intravenous, 2 mg/kg, single dose).
`CCC[C@@]1(CCc2ccccc2)CC(O)=C([C@H](CC)c2cccc(NS(=O)(=O)c3ccc(C(F)(F)F)cn3)c2)C(=O)O1` has a half-life of 5.21 h (male Sprague-Dawley rat; intravenous, 1 mg/kg).
The half-life of `Oc1ccc(/C=C/c2cc(O)cc(O)c2)cc1` is reported as 0.34 h (male Sprague-Dawley rat; intravenous, 10 mg/kg).
The half-life of `Cc1cc(C(=O)NC(C)(C)COc2cccc3c2C(N)=NS(=O)(=O)N3)cc(C)n1` is reported as 0.669 h (male Sprague-Dawley rat; oral, 30 mg/kg, single dose).
